Assay results pooled from the literature.
Protocols differ between the studies behind these lines. Several values in a cell are separate wells, animals, samples, runs or records. ± marks the error that the study gave.

CCN1/C(=C/C(C)=O)Sc2ccc(F)cc21  PR interval (cynomolgus monkey; oral, 100 mg/kg, 24 h post-dose): 87 ± 5 ms
Cc1ccc(C(=O)N(CCCN)C(c2nc3snc(C)c3c(=O)n2Cc2ccccc2)C(C)C)cc1 (centres unmarked)  patients with adverse event (mucosal inflammation grade ≥3 (CTCAE); human patients; intravenous, 4 mg/day): 0%
C=CC(=O)Nc1cc(Nc2ncc(C(=O)OC(C)C)c(-c3cn(C)c4ccccc34)n2)c(OC)cc1N(C)CCN(C)C  maximum absorption rate (saturable absorption PK model; mouse): 3.29 µmol/h
O=C(Nc1nc2cccc(-c3ccc(CN4CCS(=O)(=O)CC4)cc3)n2n1)C1CC1  treatment-emergent adverse events (item: vertigo; rheumatoid arthritis patients; oral, 75 mg once daily, 4 weeks, any relatedness): 0%
CCC(=O)N(CCC(c1ccc2c(c1)OCO2)c1ccccc1OC)Cc1ccccc1 (centres unmarked)  potassium (mouse, blood; i.p., 60 mg/kg twice daily, 2 weeks): 4.17 mEq/L
CC(C)[C@@H](CS(=O)(=O)C(C)C)N1C(=O)[C@@](C)(CC(=O)O)C[C@H](c2cccc(Cl)c2)[C@H]1c1ccc(Cl)cc1  AUC(0-inf) (FVB mice Abcb1a/b Abcg2 knockout, plasma; intravenous, 20 mg/kg): 25000 ± 1400 ng·h/mL
Cn1cc(Nc2nccc(-c3ccc4c(c3)CN(C3COC3)CC[C@H]4NC(=O)c3cn(C(C)(C)C)nn3)n2)cn1  CD8+ T cell count change (human, whole blood; 300 mg twice daily, day 7; reference: pre-dose baseline): -1.95%
Cc1cc(Nc2cc3ncccc3c(N[C@@H]3C[C@H]4CC[C@@H](C3)N4CCC#N)n2)n[nH]1  pruritus incidence (healthy human subjects; oral, 100 mg, 2 weeks, single ascending dose): 0%
CNC(=O)c1ccc(-c2cnc3ncc(Cc4ccc5ncccc5c4)n3n2)cc1F  Pancreatitis patients (Japanese patients; oral, 400 mg twice daily, any grade): 12%
O=C(O)CNC(=O)c1ncc(-c2cccc(Cl)c2)cc1O  pKa (acidic): 3.2
CC(C)(C(=O)N1CCOc2c(C#N)cncc2C1)C(F)F  subjects with adverse event (item: Presyncope; human; oral, 20 mg twice daily, 14 days, multiple ascending dose): 0%
CCC(CC)C(=O)Oc1cccc(C(O)CCN)c1.O=CO (centres unmarked)  ERG a-wave amplitude (scotopic ERG; BALB/cJ mice; intraperitoneal, 10 mg/kg, 8 h dark adaptation, together with: 10,000 lx photobleach, 10 min): 112 µV and 9 µV and 64 µV and 77 µV and 104 µV and 75 µV
CCN1CCN(Cc2ccc(NC(=O)c3ccc(C)c(NC(=O)c4cncc(-c5cccs5)c4)c3)cc2C(F)(F)F)CC1  AUC(0-inf) (C57BL/6 mice, epithelial lining fluid; intraperitoneal, 15 mg/kg): 4900 ng·h/mL
NC1(C(=O)N[C@@H](CCO)c2ccc(Cl)cc2)CCN(c2nc[nH]c3nccc2-3)CC1  incidence of Diarrhoea (metastatic CRPC patients; 400 mg b.i.d., grade 3 to 4, treatment-related, together with: enzalutamide 160 mg daily): 0%
C=CC1(C)CC(OC(=O)CSCCCCCN(C)C)C2(C)C(C)CCC3(CCC(=O)C32)C(C)C1O (centres unmarked)  maximum haemolysis (sheep erythrocytes; 1 h, pH 7.5): 2.59%
O=C(Nc1cnccc1Cl)N1CCN(Cc2ccc3c(c2)OC(F)(F)O3)CC1  adverse event incidence (item: Haematoma; human healthy young men; 75 mg, multiple dose): 0%
C[C@@H]1COCCN1c1cc(C2([S@](C)(=N)=O)CC2)nc(-c2cc[nH]c3nccc2-3)n1  Anemia incidence (Japanese advanced solid tumour patients; oral, 240 mg twice daily, CTCAE grade ≥3): 0%
Cc1ccc([C@@H]2O[C@H](CO)[C@@H](O)[C@H](O)[C@H]2O)cc1Cc1ccc(-c2ccc(F)cc2)s1  urinary calcium excretion change (Japanese type 2 diabetes patients; 100 mg, day 16, 24 h urine collection; reference: baseline): 3.54 mg
Cl.[2H]C([2H])([2H])CC(=O)c1cnc(NC(=O)C2CC2)cc1Nc1cccc(-c2ncn(C([2H])([2H])[2H])n2)c1OC  AUC(0-tau) (geometric mean; human; oral, 40 mg twice daily, day 7, fed, liquid, multiple dose): 3690 ng·h/mL
CN1CCN(c2cccc3c2CCN(C(=O)/C=C/c2c(-n4cnnn4)ccc(Cl)c2F)[C@@H]3C(=O)Nc2ccc(C(=O)O)cc2)C(=O)C1  upper respiratory infection subjects (healthy human subjects; intravenous infusion, 9 mg/h, 5 days, study): 22.2%
COc1nc(-c2cc(C)c(N[C@@H](C)c3cc(F)cc(F)c3)nn2)ccc1-n1cnc(C)c1  AUC(0-t) (cynomolgus monkey, male, plasma; oral, 2 mg/kg): 1620 ng·h/mL
C=CC(=O)N(C)CCOc1c(N)ncnc1-c1cc(F)cc(NC(=O)c2ccc(C3CC3)cc2F)c1C  AUC(0-last) per dose (human; oral, 20 mg, day 7, geometric mean, together with: ritonavir): 19.5 ng·h/mL/mg
Cc1cc(-c2nccc3c2ccn3CC(=O)Nc2ccc(-c3cnccn3)cn2)ccn1  subjects with skin abrasion TEAEs (human; MAD part, 5 mg once daily): 0%
C=CC(=O)N1CCC[C@@H](n2c(=O)n(-c3ccc(Oc4ccccc4)cc3)c3c(N)nccc32)C1  AUC(0-last) fed/fasted ratio (human; oral, 120 mg; reference: fed over fasted): 1.54
Cc1c(-c2ccc(N3CCc4cccc(C(=O)Nc5nc6ccccc6s5)c4C3)nc2C(=O)O)cnn1CC12CC3(C)CC(C)(C1)CC(OCCNCC[C@H](O)CO)(C3)C2  plasma concentration (anaesthetized male beagle dog; iv infusion, 0.01 mg/kg/min, 120 min): < 2 ng/mL
COc1cc2c3c(n(CCCN4CCOCC4)c(=O)c2cc1OC)-c1cc2c(cc1C3=O)OCO2  Cmax (beagle dog, female, plasma; intravenous infusion, 215 mg/m^2, 1 h infusion): 1090 ng/mL
CC(=O)Oc1ccccc1C(=O)O  mean blood pressure (male Hartley guinea pigs, anaesthetized; intravenous, 10 mg/kg group, baseline before infusion): 32 ± 0.1 mmHg
CNC(=O)c1cc(Oc2ccc(NC(=O)Nc3ccc(Cl)c(C(F)(F)F)c3)c(F)c2)ccn1  AUC(0-last) (male DBA/1lacJ Oatp1b2 knockout mice, plasma; oral, 10 mg/kg single dose): 19300 ± 2150 ng·h/mL
CCCCCCOC(=O)NC(=N)c1ccc(NCc2nc3cc(C(=O)N(CCC(=O)OCC)c4ccccn4)ccc3n2C)cc1  participants with TEAE dry lips (human; oral, 75 mg, compound alone): 4.2%
COc1ccc(CNc2nc(-c3ccc(C(=O)O)cc3)nc3c2c2ccccc2n3C)cc1Cl  body weight (NSG mice; dose not given, day 2 of treatment): 23.3 g and 21.6 g and 22.7 g and 20.5 g
C=CC(=O)NC1CCN(c2ncc3ncnc(Nc4ccc(Oc5ccc6c(c5)ncn6C)c(C)c4)c3n2)CC1  maximum bioaccessibility (tiny-TIM gastrointestinal model; 240 mg, fed state, high-fat meal): 45.9 ± 0.9 % recovery
O=C(O)CCCOc1ccc([18F])cc1-c1cc(-c2ccccc2C(F)(F)F)n(-c2ccccc2)n1  radioactivity uptake (gamma counting; male ddY mice, muscle; intravenous, 2.1 MBq, 5 min): 1.02 ± 0.1 SUV
CN(CCC(=O)O)C(=O)c1ccc2c(c1)CC[C@@H]1[C@@H]2CC[C@]2(C)C(c3cncc(F)c3)=CC[C@@H]12  total bilirubin (premenopausal women, endometriosis pain, serum; 60 mg twice daily, visit 6, median): 0.9 mg/dL
O=C(c1cc(Cc2n[nH]c(=O)c3ccccc23)ccc1F)N1CCN(C(=O)C2CC2)CC1  AUC(0-12 h) (HPLC-MS/MS; human patients, plasma; oral, 25 mg twice daily, dose level -1, cycle 1 day 1, together with: carboplatin target AUC 3): 3970 ng·h/mL
FC(F)(F)c1ccc(CNc2ccc(Cc3c[nH]c4ncc(Cl)cc34)cn2)cn1  treatment-related adverse events (item: weight increased; human, advanced solid tumours, non-TGCT cohort; oral, 1000 mg/day, grade 3 or higher): 0%
CNc1ccc(-c2nc3ccc(O)cc3s2)cc1 [carbon-11 labelled]  SUV (ex vivo biodistribution; B6SJL mouse, normal, bladder; intravenous, 30 min): 5.85 ± 4.37
Cc1cc(NC(=O)c2cccc(NC(=O)/C=C/CN(C)C)c2)ccc1Nc1nccc(-c2cccnc2)n1  remaining compound (rat Wistar male, plasma; 1 µM, 60 min): 86.7%
COc1ccc([C@@H](O)c2cc(-c3ncnc4cc(N5CCOCC5)ccc34)c(F)cc2Cl)nn1  metabolism nutrition disorder TEAE (locally advanced rectal cancer patients; 150 mg, together with: capecitabine and radiotherapy): 50%
Cc1cc2sc(N)nc2c2cccnc12  elimination rate constant (female BALB/c mice, plasma; intraperitoneal, 30 mg/kg): 6.78e-05 s⁻¹
CNC(=O)c1ccc(-c2cnc3ncc(Cc4ccc5ncccc5c4)n3n2)cc1F  unbound AUC(0-inf) (human mild hepatic impairment; oral, 200 mg single dose, adjusted geometric mean): 147 ng·h/mL
CCC(C)n1ncn(-c2ccc(N3CCN(c4ccc(OCC5COC(Cn6cncn6)(c6ccc(Cl)cc6Cl)O5)cc4)CC3)cc2)c1=O (centres unmarked)  adverse event incidence (item: total protein decreased; healthy human participants; oral, 200 mg, compound alone cohort): 7%
Cc1ccc(O)c(-n2nc3ccccc3n2)c1  mean daily dermal uptake (exposure assessment; human, age 1-2 years; spray sunscreen): 1410 ng/kg body weight/day
N#Cc1ccc2c(c1)[C@H]1CCCN(C(=O)c3ccc4[nH]cnc4c3)[C@H]1C2  SHBG level (human males; 360 mg, day 7): 32.7 nmol/L
FC(F)(F)c1ccc(CNc2ccc(Cc3c[nH]c4ncc(Cl)cc34)cn2)cn1  adverse event incidence (item: Nausea; patients with advanced solid tumours; oral, dose not given, grade 3 and 4, possibly related to drug): 6%
[Cl-].c1csc([I+]c2cccs2)c1  maximum tolerated dose (athymic mouse; intraperitoneal, daily, five of seven days): 6 mg/kg
Cc1c2oc3c(C)ccc(C(=O)N[C@@H]4C(=O)N[C@H](C(C)C)C(=O)N5CCC[C@H]5C(=O)N(C)CC(=O)N(C)[C@@H](C(C)C)C(=O)O[C@@H]4C)c3nc-2c(C(=O)N[C@@H]2C(=O)N[C@H](C(C)C)C(=O)N3CCC[C@H]3C(=O)N(C)CC(=O)N(C)[C@@H](C(C)C)C(=O)O[C@@H]2C)c(N)c1=O  maximum plasma concentration (children with cancer, plasma; dose not given, 15 min): 122 µg/L
O=C(O)CSc1nnc(Br)n1-c1ccc(C2CC2)c2ccccc12  body weight (KM mouse, chronic hyperuricaemia model; dose not given, day 26): 38.8 g and 41.8 g and 38.3 g and 37.2 g and 35.1 g and 32.5 g
CNCc1ccc(-c2[nH]c3cc(F)cc4c3c2CCNC4=O)cc1  constipation incidence (patients; oral, 360 mg twice daily, all grades): 25%
CN1C(C(=O)Nc2nnc(C(F)(F)F)s2)=C(O)c2ccccc2S1(=O)=O  pKa (acidic): 2
COCc1cc(C(=O)Nc2cc([C@H]3CC[C@@H](OC(=O)NC(C)C)C3)[nH]n2)n(C)n1  unbound C24h (OVCAR-3 xenograft, NOD/SCID gamma mice, plasma; oral, 125 twice daily, PK/PD study): 141 nM
C[C@@H]1CN(c2c(F)c(N)c3c(=O)c(C(=O)O)cn(C4CC4)c3c2F)C[C@H](C)N1  mean blood pressure (male Hartley guinea pigs, anaesthetized; intravenous, 30 mg/kg over 10 min, after infusion): 33 ± 0.2 mmHg
CN1C(=O)[C@@H](NC(=O)c2nnc(Cc3ccccc3)[nH]2)COc2cccnc21  participants with any TEAE (phase I single ascending dose; human, male and female; oral, 10 mg, fasted): 50%
Cn1c(C(F)(F)F)cc(=O)n(-c2cc(Oc3cccnc3OCC(=O)O)c(Cl)cc2F)c1=O  Tmax (beagle dog, female, plasma; oral capsule, 1000 mg/kg/day epyrifenacil, week 13, 90-day study): 3.5 h
CNC(=O)c1ccc(-c2cnc3ncc(Cc4ccc5ncccc5c4)n3n2)cc1F  bilirubin increase incidence (all grades) (CTCAE v4.0, any causality; human cancer patients; oral, 600 mg twice daily, expansion cohort at RP2D): 11%
COc1cccc(OC)c1-c1cc(C(=O)NC2(C(=O)O)C3CC4CC(C3)CC2C4)nn1-c1ccc(C(=O)N(C)CCCN(C)CCCN(C)C(=O)CN2CCN(CC(=O)[O-])CCN(CC(=O)[O-])CCN(CC(=O)[O-])CC2)cc1C(C)C.[177Lu+3] (centres unmarked)  tissue uptake (mouse, HT-29 xenograft, liver; 72 h post injection): 0.34 %ID/g
NC[C@@]1(CC(=O)O)[C@@H]2CC[C@H]3C[C@@H]2[C@@H]1C3  unbound AUC(0-t) increase (human, mild renal impairment, plasma; dose not given; reference: normal renal function): 14.7%
CCCCCCCOc1ccc(CCC(N)(CO)CO)cc1C(F)(F)F.Cl  AUC(0-tau) (healthy men, plasma; oral, 0.5 mg, day 1): 4.36 ng·h/mL
CC/C(=C(\c1ccccc1)c1ccc(OCCN(C)C)cc1)c1ccccc1  mean blood pressure (male Hartley guinea pigs, anaesthetized; intravenous, 10 mg/kg over 10 min, after infusion): 34 ± 0.3 mmHg
COc1cc2[nH]c(C)c(-c3ccccc3)c(=O)c2cc1Cl  Papp (PAMPA; pH 7.4): 48 ×10⁻⁶ cm/s

Excerpt of the above:
COc1cccc(OC)c1-c1cc(C(=O)NC2(C(=O)O)C3CC4CC(C3)CC2C4)nn1-c1ccc(C(=O)N(C)CCCN(C)CCCN(C)C(=O)CN2CCN(CC(=O)[O-])CCN(CC(=O)[O-])CCN(CC(=O)[O-])CC2)cc1C(C)C.[177Lu+3] (centres unmarked)  tissue uptake (mouse, HT-29 xenograft, liver; 72 h post injection): 0.34 %ID/g
C=CC(=O)Nc1cc(Nc2ncc(C(=O)OC(C)C)c(-c3cn(C)c4ccccc34)n2)c(OC)cc1N(C)CCN(C)C  maximum absorption rate (saturable absorption PK model; mouse): 3.29 µmol/h
Cc1cc2sc(N)nc2c2cccnc12  elimination rate constant (female BALB/c mice, plasma; intraperitoneal, 30 mg/kg): 6.78e-05 s⁻¹
Cc1cc(NC(=O)c2cccc(NC(=O)/C=C/CN(C)C)c2)ccc1Nc1nccc(-c2cccnc2)n1  remaining compound (rat Wistar male, plasma; 1 µM, 60 min): 86.7%
